Assay results from different studies.
Every numbered part comes from another study and shows a few of its results, in no order. Several values in a cell are separate wells, animals, samples, runs or records.

Block 1
SMILES: Cc1ccc(O)c(C)c1-c1cnc2[nH]c(-c3cnc(N4CCC(CN5CCN(c6ccc7c(c6)C(=O)N(C6CCC(=O)NC6=O)C7=O)CC5)CC4)nc3)cc2c1C#N (stereo not shown)
Target: Membrane-associated tyrosine- and threonine-specific cdc2-inhibitory kinase (PKMYT1, Homo sapiens, UniProt Q99640)
UniProt Q99640, sequence (whole entry, looked up): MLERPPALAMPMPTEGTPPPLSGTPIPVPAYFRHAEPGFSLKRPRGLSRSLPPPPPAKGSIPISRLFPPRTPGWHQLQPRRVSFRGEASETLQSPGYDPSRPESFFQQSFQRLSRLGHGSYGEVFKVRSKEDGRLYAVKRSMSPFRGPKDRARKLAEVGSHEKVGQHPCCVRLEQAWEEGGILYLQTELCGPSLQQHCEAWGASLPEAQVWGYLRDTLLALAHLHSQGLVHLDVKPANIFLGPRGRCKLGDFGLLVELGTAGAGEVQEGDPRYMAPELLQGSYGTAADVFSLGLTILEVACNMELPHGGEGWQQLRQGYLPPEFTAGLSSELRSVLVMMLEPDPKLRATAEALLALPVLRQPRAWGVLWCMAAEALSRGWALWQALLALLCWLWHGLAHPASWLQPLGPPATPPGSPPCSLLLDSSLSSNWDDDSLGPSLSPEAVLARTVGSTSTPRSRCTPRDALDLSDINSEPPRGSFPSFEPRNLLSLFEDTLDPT
It gave 99.1% for inhibition (0.1111 µM).
It gave 84.2% for inhibition (cell-free assay, inhibitor, TR-FRET; 12.35 nM).
The inhibition was 101% (cell-free assay, inhibitor, TR-FRET; 0.1111 µM).
For 5.1e-05 µM: inhibition read -1.06%.
0.00046 µM — inhibition: 5.77%.
For 0.01235 µM: inhibition read 79.3%.
For cell-free assay, inhibitor, TR-FRET; 460 pM: inhibition read 0.66%.
0.03704 µM — inhibition: 96.8%.
The inhibition was 0.6% (cell-free assay, inhibitor, TR-FRET; 152 pM).
It gave 14.3% for inhibition (0.00137 µM).

Block 2
Structure (SMILES): NC/C(=C\F)COc1ccc(C(F)(F)F)c(Cn2c(=S)[nH]c(=O)c3[nH]cnc32)c1
Target: Myeloperoxidase (MPO, Homo sapiens, UniProt P05164)
UniProt P05164, sequence (whole entry, looked up): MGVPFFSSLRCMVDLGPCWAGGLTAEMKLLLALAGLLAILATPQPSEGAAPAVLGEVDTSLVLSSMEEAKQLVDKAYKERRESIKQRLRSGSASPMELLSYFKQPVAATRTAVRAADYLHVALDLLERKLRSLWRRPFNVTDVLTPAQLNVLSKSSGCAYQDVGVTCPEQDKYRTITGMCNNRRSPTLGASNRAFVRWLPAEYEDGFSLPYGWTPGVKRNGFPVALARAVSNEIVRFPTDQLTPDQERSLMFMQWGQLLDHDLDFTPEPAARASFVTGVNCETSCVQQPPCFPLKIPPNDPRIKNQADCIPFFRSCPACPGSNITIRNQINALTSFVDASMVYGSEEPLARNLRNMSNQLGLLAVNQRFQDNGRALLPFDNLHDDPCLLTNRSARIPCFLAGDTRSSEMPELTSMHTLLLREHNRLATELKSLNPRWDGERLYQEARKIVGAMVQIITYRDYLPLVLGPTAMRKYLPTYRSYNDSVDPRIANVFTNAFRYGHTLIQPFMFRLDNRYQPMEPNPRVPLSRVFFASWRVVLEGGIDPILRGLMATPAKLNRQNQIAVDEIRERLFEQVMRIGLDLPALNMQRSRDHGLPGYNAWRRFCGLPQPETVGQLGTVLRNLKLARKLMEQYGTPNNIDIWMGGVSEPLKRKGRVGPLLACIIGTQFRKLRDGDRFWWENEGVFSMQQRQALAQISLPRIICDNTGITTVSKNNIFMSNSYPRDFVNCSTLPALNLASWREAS
Read-out: enzyme activity
For 0.0046 µM: inhibition read 13.4% and -2.25%.
For 1.111 µM: inhibition read 94.5% and 97.3%.
The inhibition was 90.5% and 84.8% (0.3704 µM).
It gave 41.3% and 43.2% for inhibition (0.0412 µM).

Block 3
SMILES: C[C@@H]1CN(c2ccc(-c3cc(C(=O)NCCOCCOCCOCCOCCOCCOCCNC(=O)/C=C/c4[nH]cc(C(=O)N[C@@H](CC(N)=O)c5ccc(F)c(Cl)c5)c4-c4ccc(Cl)cc4F)ccc3F)cc2NC(=O)c2ccc(F)cc2C(F)(F)F)C[C@H](C)N1C
Read-out: thermal unfolding
Method: differential scanning fluorimetry
Concentration: 5.5 µM
Direction: higher = more unfolded
WDR5: WD repeat-containing protein 5 (WDR5, Homo sapiens, UniProt P61964)
DCAF1: DDB1- and CUL4-associated factor 1 (DCAF1, Homo sapiens, UniProt Q9Y4B6)
UniProt Q9Y4B6, sequence (whole entry, looked up): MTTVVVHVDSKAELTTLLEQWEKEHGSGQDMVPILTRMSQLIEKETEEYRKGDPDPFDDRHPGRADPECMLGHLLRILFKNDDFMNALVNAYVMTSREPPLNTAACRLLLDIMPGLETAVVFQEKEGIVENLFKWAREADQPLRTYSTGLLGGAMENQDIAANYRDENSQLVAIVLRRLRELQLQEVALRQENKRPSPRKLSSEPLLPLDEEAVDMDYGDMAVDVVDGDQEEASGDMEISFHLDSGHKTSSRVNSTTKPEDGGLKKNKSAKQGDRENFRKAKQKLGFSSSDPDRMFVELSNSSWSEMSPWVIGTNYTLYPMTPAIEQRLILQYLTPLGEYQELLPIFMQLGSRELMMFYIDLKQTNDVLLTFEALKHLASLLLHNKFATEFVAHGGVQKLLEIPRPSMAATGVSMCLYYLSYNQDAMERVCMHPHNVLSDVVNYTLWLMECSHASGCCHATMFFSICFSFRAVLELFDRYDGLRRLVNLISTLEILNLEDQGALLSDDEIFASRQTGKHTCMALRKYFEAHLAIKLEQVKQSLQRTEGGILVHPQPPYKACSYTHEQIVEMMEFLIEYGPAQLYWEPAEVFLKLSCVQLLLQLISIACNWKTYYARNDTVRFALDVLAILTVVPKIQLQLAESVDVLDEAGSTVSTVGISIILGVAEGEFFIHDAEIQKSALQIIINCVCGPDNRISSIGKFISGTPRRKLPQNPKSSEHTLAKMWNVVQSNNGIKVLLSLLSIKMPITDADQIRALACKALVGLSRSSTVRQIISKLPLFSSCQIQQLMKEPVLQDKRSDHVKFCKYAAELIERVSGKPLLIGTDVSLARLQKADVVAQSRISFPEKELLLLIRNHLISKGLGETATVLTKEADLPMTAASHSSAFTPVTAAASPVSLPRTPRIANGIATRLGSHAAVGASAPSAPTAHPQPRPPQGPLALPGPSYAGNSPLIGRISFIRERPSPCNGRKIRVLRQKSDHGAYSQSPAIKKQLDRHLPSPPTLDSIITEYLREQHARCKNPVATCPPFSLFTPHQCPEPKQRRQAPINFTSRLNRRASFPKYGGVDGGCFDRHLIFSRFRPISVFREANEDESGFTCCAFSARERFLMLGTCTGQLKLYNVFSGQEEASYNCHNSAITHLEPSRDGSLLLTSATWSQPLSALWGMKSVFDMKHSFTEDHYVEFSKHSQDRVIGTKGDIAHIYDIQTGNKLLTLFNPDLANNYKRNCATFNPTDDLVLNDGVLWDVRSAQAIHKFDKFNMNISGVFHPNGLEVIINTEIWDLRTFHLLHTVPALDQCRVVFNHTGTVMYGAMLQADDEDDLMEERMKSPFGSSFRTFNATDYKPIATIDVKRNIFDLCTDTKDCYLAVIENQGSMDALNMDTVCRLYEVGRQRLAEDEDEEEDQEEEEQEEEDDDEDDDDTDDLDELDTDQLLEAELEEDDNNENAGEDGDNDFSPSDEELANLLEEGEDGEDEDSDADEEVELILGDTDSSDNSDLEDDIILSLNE
It gave 63300 a.u. for “SYPRO Orange fluorescence” (WDR5; 79.21 °C).
It gave 56400 a.u. for “SYPRO Orange fluorescence” (WDR5; 89.01 °C).
The “SYPRO Orange fluorescence” was 65700 a.u. (WDR5; 81.01 °C).
It gave 44400 a.u. for “SYPRO Orange fluorescence” (WDR5; 74.01 °C).
DCAF1; 43.6 °C — “SYPRO Orange fluorescence”: 13900 a.u.
For DCAF1; 94.81 °C: “SYPRO Orange fluorescence” read 28700 a.u.
For DCAF1; 88.01 °C: “SYPRO Orange fluorescence” read 33900 a.u.
WDR5; 25.8 °C — “SYPRO Orange fluorescence”: 13200 a.u.
The “SYPRO Orange fluorescence” was 48600 a.u. (WDR5; 94.61 °C).
For WDR5; 79.61 °C: “SYPRO Orange fluorescence” read 64100 a.u.
For DCAF1; 42 °C: “SYPRO Orange fluorescence” read 12800 a.u.

Block 4
Target: Sodium-dependent neutral amino acid transporter B(0)AT1 (SLC6A19, Homo sapiens, UniProt Q695T7)
UniProt Q695T7, sequence (whole entry, looked up): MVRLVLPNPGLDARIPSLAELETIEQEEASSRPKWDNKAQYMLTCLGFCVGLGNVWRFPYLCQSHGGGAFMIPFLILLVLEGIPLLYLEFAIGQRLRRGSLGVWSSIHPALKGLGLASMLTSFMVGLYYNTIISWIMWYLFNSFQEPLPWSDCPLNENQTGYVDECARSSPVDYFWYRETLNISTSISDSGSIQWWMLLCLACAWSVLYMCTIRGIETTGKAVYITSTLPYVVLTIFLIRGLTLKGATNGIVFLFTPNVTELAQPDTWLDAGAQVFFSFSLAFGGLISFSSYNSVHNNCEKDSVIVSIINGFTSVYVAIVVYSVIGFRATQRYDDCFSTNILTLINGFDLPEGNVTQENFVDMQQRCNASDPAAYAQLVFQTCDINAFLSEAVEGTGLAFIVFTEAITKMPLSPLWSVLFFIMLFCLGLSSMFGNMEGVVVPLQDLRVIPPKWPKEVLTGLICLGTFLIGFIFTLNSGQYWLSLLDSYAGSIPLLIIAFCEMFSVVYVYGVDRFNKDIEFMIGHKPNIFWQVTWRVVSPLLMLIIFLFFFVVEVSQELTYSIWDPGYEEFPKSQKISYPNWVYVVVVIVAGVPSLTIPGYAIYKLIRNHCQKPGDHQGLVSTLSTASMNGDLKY
Method: FLIPR membrane potential
Cells: CHO-BC
Concentration: 30 µM
Setting: unit not given
Baseline: uninhibited
`Cc1cc(Cl)ccc1OCC(=O)NC(C)C` has a remaining activity of 0.952 and 0.78 and 0.909 and 0.889 and 0.996.
With `Cc1cc(NCC(=O)NC(C)C)cc(C)c1Cl` the remaining activity was 0.103 and 0.189 and 0.141 and 0.177.
With `CCCCNC(=O)COc1cc(C)c(Cl)c(C)c1` the remaining activity was 1.03 and 0.991 and 0.976 and 1.07.
For `CON(C)C(=O)COc1cc(C)c(Cl)c(C)c1`, the remaining activity was 1 and 1.1 and 1.12 and 1.01.
For `Cc1cc(OCC(=O)OC(C)C)cc(C)c1Cl`, the remaining activity was 1.01 and 0.911 and 0.898 and 1.08.
For `Cc1cc(OCC(=O)NC(C)C)ccc1Cl`, the remaining activity was 0.378 and 0.362 and 0.112 and 0.103.

For quick reference, copied from above (block 2):
For 0.0046 µM: inhibition read 13.4% and -2.25%.
For 1.111 µM: inhibition read 94.5% and 97.3%.
The inhibition was 90.5% and 84.8% (0.3704 µM).
It gave 41.3% and 43.2% for inhibition (0.0412 µM).
